Assay results pooled from the literature.
± gives the spread as reported.
BCHE: Cholinesterase (BCHE, Homo sapiens, UniProt P06276)
Chain of UniProt P06276 (whole entry, looked up): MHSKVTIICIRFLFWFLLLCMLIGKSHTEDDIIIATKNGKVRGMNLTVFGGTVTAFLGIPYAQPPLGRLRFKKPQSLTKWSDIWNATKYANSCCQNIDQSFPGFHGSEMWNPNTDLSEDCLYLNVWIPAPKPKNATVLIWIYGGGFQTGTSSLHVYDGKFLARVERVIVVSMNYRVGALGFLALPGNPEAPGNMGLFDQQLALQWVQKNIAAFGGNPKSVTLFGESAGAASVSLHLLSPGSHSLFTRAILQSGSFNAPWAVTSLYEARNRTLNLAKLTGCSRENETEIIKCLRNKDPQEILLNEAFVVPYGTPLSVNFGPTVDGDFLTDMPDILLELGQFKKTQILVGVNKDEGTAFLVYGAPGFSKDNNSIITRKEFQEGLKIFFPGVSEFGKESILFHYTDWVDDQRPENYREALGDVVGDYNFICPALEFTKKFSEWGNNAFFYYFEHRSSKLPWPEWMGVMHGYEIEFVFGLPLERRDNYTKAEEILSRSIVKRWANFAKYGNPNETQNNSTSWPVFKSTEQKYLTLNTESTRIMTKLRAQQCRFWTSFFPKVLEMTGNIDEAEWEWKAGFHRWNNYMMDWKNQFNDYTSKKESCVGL
ilvC: Ketol-acid reductoisomerase (NADP(+)) (ilvC, Mycobacterium tuberculosis, UniProt P9WKJ7)
Chain of UniProt P9WKJ7 (whole entry, looked up): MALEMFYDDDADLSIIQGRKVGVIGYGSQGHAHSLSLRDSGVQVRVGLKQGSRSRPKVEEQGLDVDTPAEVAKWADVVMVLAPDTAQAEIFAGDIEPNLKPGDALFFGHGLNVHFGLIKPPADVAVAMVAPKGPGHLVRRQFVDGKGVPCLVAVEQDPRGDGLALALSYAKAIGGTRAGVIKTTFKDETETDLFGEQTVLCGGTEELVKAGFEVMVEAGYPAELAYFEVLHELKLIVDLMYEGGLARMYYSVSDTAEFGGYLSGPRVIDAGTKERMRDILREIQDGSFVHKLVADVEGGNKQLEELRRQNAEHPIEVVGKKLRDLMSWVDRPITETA
gag-pol integrase: Gag-Pol polyprotein, integrase (gag-pol, Human immunodeficiency virus 1, UniProt P12497)
DRD3: D(3) dopamine receptor (DRD3, Homo sapiens, UniProt P35462)
Chain of UniProt P35462 (whole entry, looked up): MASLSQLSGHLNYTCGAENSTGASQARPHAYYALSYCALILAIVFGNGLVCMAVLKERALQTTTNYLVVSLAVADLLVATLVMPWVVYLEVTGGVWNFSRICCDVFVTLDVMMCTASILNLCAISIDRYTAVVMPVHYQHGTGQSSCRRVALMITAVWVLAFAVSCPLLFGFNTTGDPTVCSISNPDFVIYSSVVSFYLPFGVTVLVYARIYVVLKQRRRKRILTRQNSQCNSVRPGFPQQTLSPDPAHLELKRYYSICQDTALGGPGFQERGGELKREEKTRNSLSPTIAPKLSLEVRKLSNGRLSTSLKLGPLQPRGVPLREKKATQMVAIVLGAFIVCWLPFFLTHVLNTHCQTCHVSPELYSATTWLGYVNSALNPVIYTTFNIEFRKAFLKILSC
Chain of UniProt Q08345 (whole entry, looked up): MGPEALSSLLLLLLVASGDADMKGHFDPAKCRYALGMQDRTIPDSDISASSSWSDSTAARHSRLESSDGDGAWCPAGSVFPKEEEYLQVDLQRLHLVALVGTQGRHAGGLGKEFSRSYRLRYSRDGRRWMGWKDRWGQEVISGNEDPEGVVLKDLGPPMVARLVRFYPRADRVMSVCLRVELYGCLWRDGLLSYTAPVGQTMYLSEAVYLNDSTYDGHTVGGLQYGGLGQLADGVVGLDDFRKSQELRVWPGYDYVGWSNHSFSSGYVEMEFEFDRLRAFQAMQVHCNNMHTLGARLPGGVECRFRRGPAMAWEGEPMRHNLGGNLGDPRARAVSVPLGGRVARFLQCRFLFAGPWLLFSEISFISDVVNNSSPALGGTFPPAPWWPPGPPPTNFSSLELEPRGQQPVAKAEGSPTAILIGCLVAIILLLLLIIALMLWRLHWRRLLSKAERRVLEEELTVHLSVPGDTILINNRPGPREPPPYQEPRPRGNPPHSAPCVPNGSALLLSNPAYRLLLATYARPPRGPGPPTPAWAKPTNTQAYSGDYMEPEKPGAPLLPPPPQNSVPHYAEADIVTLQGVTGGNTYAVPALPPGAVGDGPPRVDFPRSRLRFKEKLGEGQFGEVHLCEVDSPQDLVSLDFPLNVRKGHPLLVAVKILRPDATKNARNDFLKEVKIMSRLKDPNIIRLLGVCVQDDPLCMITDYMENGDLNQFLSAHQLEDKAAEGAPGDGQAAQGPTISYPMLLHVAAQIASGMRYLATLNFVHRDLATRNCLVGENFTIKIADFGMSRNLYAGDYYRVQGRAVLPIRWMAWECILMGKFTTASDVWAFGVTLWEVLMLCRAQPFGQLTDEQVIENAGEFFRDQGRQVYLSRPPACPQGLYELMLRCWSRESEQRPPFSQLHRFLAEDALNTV

Compound	target or system	assay	system	conditions	measurement	result
C[C@H]1CN(c2n[nH]c3nc(N[C@H]4CC[C@H](NS(=O)(=O)CCC(F)(F)F)CC4)ncc23)CCO1	Epithelial discoidin domain-containing receptor 1 (DDR1, Homo sapiens, UniProt Q08345)	biochemical			IC50	≥ 20000 nM
Nc1c2c(nc3ccccc13)CCCC2O (centres unmarked)	BCHE	inhibitor			IC50	210 ± 10 nM
O=c1[nH]c2nc(-c3ccncc3)sc2c(=O)n1O	ilvC	inhibitor		30 min preincubation, added: NADPH	Ki	240 ± 30 nM
COc1c(Cl)cc(Cl)cc1/C=N/NC(=O)c1ccncc1	gag-pol integrase	3'-processing activity, inhibitor		wild-type integrase	IC50	> 100000 nM
c1ccc2sc(C3(N4CCCCC4)CCCCC3)cc2c1	BCHE	inhibitor, fluorometric			IC50	1880 ± 740 nM
COc1cc(Nc2ncc(F)c(Nc3ccc4c(n3)NC(=O)C(C)(C)O4)n2)cc(OC)c1OC	DRD3				IC50	> 10000 nM
C/C(=N\Nc1ccc(S(=O)(=O)Nc2ccccc2)cc1[N+](=O)[O-])c1cc(O)ccc1O	gag-pol integrase	strand transfer activity, inhibitor		wild-type integrase	IC50	> 100000 nM
CC[C@H](C)[C@H](NC(=O)[C@H](Cc1ccccc1)NC(=O)[C@H](CCC(=O)O)NC(=O)[C@H](CCCNC(=N)N)NC(=O)[C@H](C)NC(=O)[C@H](C)NC(=O)[C@H](CCC(N)=O)NC(=O)[C@H](CCC(=O)O)NC(=O)[C@H](CCC(=O)O)NC(=O)[C@H](CC(C)C)NC(=O)[C@H](Cc1ccc(O)cc1)NC(=O)[C@H](CO)NC(=O)[C@H](CO)NC(=O)[C@@H](NC(=O)[C@H](CC(=O)O)NC(=O)[C@H](CO)NC(=O)[C@@H](NC(=O)[C@H](Cc1ccccc1)NC(=O)[C@@H](NC(=O)CNC(=O)[C@H](CCC(=O)O)NC(=O)[C@H](C)NC(=O)CCc1c[nH]cn1)[C@@H](C)O)[C@@H](C)O)C(C)C)C(=O)N[C@@H](C)C(=O)N[C@@H](Cc1c[nH]c2ccccc12)C(=O)N[C@@H](CC(C)C)C(=O)N[C@H](C(=O)N[C@@H](CCCNC(=N)N)C(=O)NCC(=O)N[C@@H](CCCNC(=N)N)C(=O)N[C@@H](CCCCNC(=O)COCCOCCNC(=O)COCCOCCNC(=O)CC[C@H](NC(=O)CCCCCCCCCCCCCCCCC(=O)O)C(=O)O)C(=O)NCC(=O)NCC(=O)N[C@@H](CO)C(=O)N[C@@H](CCCCNc1c(NCCCCCN(O)C(=O)CCC(=O)NCCCCCN(O)C(=O)CCC(=O)NCCCCCN(O)C(C)=O)c(=O)c1=O)C(=O)O)C(C)C [zirconium-89 labelled]		gamma counting	rat, skin of neck	intravenous, 3 nmol/kg, 72 h	tissue uptake	0.18 %ID/g
Cc1[nH]c(C)c(S(=O)(=O)Nc2ccc(S(F)(F)(F)(F)F)cc2)c1C(=O)N1CCC(F)(F)C1	DRD3	β-arrestin recruitment, allosteric modulator, operational model of allostery		added: dopamine	Kb	710 nM
N=C(N)NC(=N)Nc1cccc(Cl)c1	Plasmodium falciparum		W2		IC50	5010 nM
CO[C@H]1C[C@@H]2CC[C@@H](C)[C@@](O)(O2)C(=O)C(=O)N2CCCC[C@H]2C(=O)O[C@H]([C@H](C)C[C@@H]2CC[C@@H](OC(=O)NCCOCCOCCOCCOCCOCCOCCOCCOCCC(=O)N3CCc4cc(Cn5nc(-c6ccc7oc(N)nc7c6)c6c(N)ncnc65)ccc4C3)[C@H](OC)C2)C[C@@H](O)[C@H](C)/C=C(\C)[C@@H](O)[C@@H](OC)C(=O)[C@H](C)C[C@H](C)/C=C/C=C/C=C/1C		phase 1 dose escalation	advanced solid tumour patients	intravenous, 16 mg weekly, any grade	deaths due to TRAEs	0%
CC(C)(C)C1CCN(C(=O)n2ncc(C(O)(c3ccccc3)c3ccccc3)n2)CC1	BCHE	inhibitor, fluorometric			IC50	2240 ± 720 nM
COc1cc2c(Oc3ccc4[nH]c(C)cc4c3F)ccnc2cc1OCC1(N)CC1			paediatric recurrent refractory sarcoma	10 mg	grade 1 or 2 TBIL elevation	0%
O=C(N/N=C/c1c(O)ccc2ccccc12)c1n[nH]c2c1CCC2	gag-pol integrase	strand transfer activity, inhibitor		wild-type integrase	IC50	> 100000 nM
CNCCCN1c2ccccc2CCc2ccccc21	Plasmodium falciparum		W2		IC50	1580 nM
O=c1[nH]c2nc(-c3ccccc3)sc2c(=O)n1O	ilvC			added: NADPH pre-incubation 30 min	Ki	49.4 ± 5 nM
Nc1c2c(nc3c1CCC3)CCCC2	BCHE	inhibitor		with Triton	IC50	960 ± 660 nM
COc1ccc(NC(=O)N2CCCCN3C[C@H](c4ccc(C#Cc5ccccc5)cc4)[C@@H]3C2)cc1	Cryptosporidium parvum	luciferase	HCT-8, transgenic PheRS L482V mutant	48 h	EC50	372 nM
Oc1ccc(Br)cc1/C=N/Nc1cccc2cccnc12	Gag-Pol polyprotein, integrase with LEDGF/p75 (gag-pol, Human immunodeficiency virus 1, UniProt P12497)	LEDGF/p75-integrase interaction, inhibitor, AlphaScreen			IC50	> 50000 nM
Cc1nc2[nH]c(=O)n(OS(=O)(=O)c3ccccc3)c(=O)c2s1	ilvC	inhibitor		30 min preincubation, added: NADPH	Ki	> 50000 nM
C=CC/N=c1/scc(-c2ccccc2Br)n1/N=C/c1ccccn1	gag-pol integrase	3'-processing activity, inhibitor		wild-type integrase	IC50	> 100000 nM
CCOC(=O)C(=O)c1csc(NC=O)n1	BCHE	inhibitor			IC50	3850 nM
COCC/N=c1/scc(-c2cccs2)n1/N=C/c1cc(Br)c(O)c(OC)c1	gag-pol integrase	3'-processing activity, inhibitor		wild-type integrase	IC50	> 100000 nM
CC[C@H](NC(=O)[C@H](CS(=O)(=O)CC1CC1)N[C@@H](c1ccc(F)cc1)C(F)(F)F)C(=O)C(=O)NC1CC1	BCHE	inhibitor, fluorometric			IC50	3450 ± 1750 nM
CC(=O)c1ccc(/N=N/c2ccc(C[P+](c3ccccc3)(c3ccccc3)c3ccccc3)cc2)cc1	gag-pol integrase	strand transfer activity, inhibitor		wild-type integrase	IC50	> 100000 nM
Clc1ccccc1CNCC1CCC(CNCc2ccccc2Cl)CC1 (centres unmarked)	BCHE	inhibitor			IC50	6150 ± 2670 nM

Repeated from above:
Compound	target or system	assay	system	conditions	measurement	result
Nc1c2c(nc3c1CCC3)CCCC2	BCHE	inhibitor		with Triton	IC50	960 ± 660 nM
COc1ccc(NC(=O)N2CCCCN3C[C@H](c4ccc(C#Cc5ccccc5)cc4)[C@@H]3C2)cc1	Cryptosporidium parvum	luciferase	HCT-8, transgenic PheRS L482V mutant	48 h	EC50	372 nM
Oc1ccc(Br)cc1/C=N/Nc1cccc2cccnc12	Gag-Pol polyprotein, integrase with LEDGF/p75 (gag-pol, Human immunodeficiency virus 1, UniProt P12497)	LEDGF/p75-integrase interaction, inhibitor, AlphaScreen			IC50	> 50000 nM
Cc1nc2[nH]c(=O)n(OS(=O)(=O)c3ccccc3)c(=O)c2s1	ilvC	inhibitor		30 min preincubation, added: NADPH	Ki	> 50000 nM
